Assay results of several laboratories.
Every numbered part comes from another study and shows a few of its results, in no order. Values joined by “and” are separate records of one study, mostly repeats; a detail may differ.

Block 1 — technique: universal PBM; form: double-stranded DNA, one strand shown; sample: in vitro; concentration: not given; reading: higher = stronger binding
Target: Sal-like protein 4, full length isoform B (SALL4, Homo sapiens, UniProt Q9UJQ4-2, residues 1-616)
Setting: 8-mer, flanks averaged, mean of replicates
Residues (chain): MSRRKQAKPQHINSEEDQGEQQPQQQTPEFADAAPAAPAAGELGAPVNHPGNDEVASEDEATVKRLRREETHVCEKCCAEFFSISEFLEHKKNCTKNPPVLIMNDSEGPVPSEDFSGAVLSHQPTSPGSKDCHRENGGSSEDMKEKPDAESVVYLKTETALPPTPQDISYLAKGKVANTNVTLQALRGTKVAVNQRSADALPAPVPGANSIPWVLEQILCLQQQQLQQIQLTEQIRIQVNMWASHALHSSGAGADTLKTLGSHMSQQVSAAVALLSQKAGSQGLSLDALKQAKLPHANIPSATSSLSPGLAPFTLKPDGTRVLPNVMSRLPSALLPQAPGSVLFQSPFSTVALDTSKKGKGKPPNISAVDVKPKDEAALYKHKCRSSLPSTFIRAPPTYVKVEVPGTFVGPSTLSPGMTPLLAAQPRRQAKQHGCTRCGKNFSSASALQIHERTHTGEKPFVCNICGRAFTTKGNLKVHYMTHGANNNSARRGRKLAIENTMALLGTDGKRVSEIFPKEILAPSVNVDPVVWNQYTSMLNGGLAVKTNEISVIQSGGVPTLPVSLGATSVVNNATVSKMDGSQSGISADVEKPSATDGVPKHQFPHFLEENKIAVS
For `CTTCTTAC`, the E-score was -0.0787.
For `ACATTTGG`, the E-score was -0.0478.
For `AGGACAAT`, the E-score was 0.136.
The E-score of `ACGAGCAT` is reported as 0.113.
`AGACTCAT` has an E-score of 0.126.
`TCAGTACA` has an E-score of 0.115.

Block 2 — technique: RNAcompete; form: RNA; sample: in vitro; concentration: 20 nM; setting: 7-mer, probes averaged, single round; reference: mean of 7-mers; reading: higher = stronger binding
Target: PABPC1L2, full length, GST fusion (mouse, UniProt A0ABA7IW68)
Construct (chain): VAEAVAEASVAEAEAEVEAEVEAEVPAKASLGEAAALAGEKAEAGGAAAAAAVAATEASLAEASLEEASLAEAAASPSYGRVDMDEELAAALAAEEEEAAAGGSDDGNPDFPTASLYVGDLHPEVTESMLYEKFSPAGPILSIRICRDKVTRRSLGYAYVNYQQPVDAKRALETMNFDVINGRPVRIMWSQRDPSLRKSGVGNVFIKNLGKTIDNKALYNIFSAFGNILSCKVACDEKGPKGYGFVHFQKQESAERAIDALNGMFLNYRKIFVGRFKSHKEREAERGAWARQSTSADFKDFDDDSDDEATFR
`GCUCAAA` has a 7-mer Z-score of 0.321.
With `UCGUUGA` the 7-mer Z-score was -0.296.
For `GGCAUAC`, the 7-mer Z-score was 0.0932.
`GGGCGCG` has a 7-mer Z-score of 0.0932.
For `AAUUACC`, the 7-mer Z-score was 0.017.
`GUUCUAA` gave a 7-mer Z-score of -0.146.
For `AUACGCA`, the 7-mer Z-score was -0.103.
`CUUUGGC` has a 7-mer Z-score of -0.315.
`CUGACCU` has a 7-mer Z-score of -0.217.
For `ACCAGUU`, the 7-mer Z-score was -0.266.

Block 3 — technique: protein binding microarray; form: double-stranded DNA, one strand shown; sample: in vitro; concentration: not given; reference: not given; reading: higher = stronger binding
Target: Histone acetyltransferase KAT6A, both winged helices, GST fusion (KAT6A, Homo sapiens, UniProt Q92794, residues 1-181)
Setting: 8-mer, flanks averaged, mean of 2 arrays, mostly near background
Residues (chain): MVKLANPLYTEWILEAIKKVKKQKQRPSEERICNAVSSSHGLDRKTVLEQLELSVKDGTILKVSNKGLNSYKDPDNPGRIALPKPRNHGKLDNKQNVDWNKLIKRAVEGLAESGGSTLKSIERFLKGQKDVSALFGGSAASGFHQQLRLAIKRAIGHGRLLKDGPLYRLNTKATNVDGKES
For `CTTTATGC`, the E-score was 0.0705.
The E-score of `ATGATTTG` is reported as 0.0157.
`CCGGACCA` gave an E-score of 0.134.
`CCCGAAAA` has an E-score of 0.0433.
The E-score of `ATTTCACA` is reported as -0.126.
For `GGTAGAAA`, the E-score was 0.0321.
The E-score of `ACATTCGC` is reported as 0.213.
The E-score of `GCAGACCA` is reported as -0.0707.
`CAGTATCG` gave an E-score of 0.164.
`CCATCAAG` gave an E-score of -0.187.

Single results of other studies
The fold induction of `PhoQ, residues 284 288 289 292 302 303 AGGCYF` is reported as 15.5 and 11.3 (PhoP, residues 12 14 15 18 19 LWHSL (Escherichia coli, UniProt P23836); Sort-seq, refers to: YFP reporter; E. coli; PhoQ-PhoP variant library, with: 10 µM Mg2+; reference: high Mg2+ state, higher = stronger signaling).

Some of these lines once more (block 3):
`CCCGAAAA` has an E-score of 0.0433.
The E-score of `ATTTCACA` is reported as -0.126.
